Results from different studies.
Lines come from different studies, so protocols differ.
Organism: Pseudomonas aeruginosa

SMILES	assay	test system	conditions	how to read	MIC
COc1ccc2ccc3c(c2c1)C=[N+]1C2CCCCC2[N+]2=Cc4c(F)cccc4[O][Au-]21[O]3.F[P-](F)(F)(F)(F)F (stereo not shown)	bacterial growth, broth microdilution	carbapenem-resistant	24 h		> 20 µM
CN1CCC(NCCC2(Cc3ccc(Cl)cc3)CCCCC2)CC1	microbial growth		10 h		200 µM
CC(C)C(O)C(NC(=O)[C@H](Cc1ccc(O)cc1)NC(=O)C(Cc1ccc(O)c(Cl)c1)[N+](C)(C)C)C(=O)N[C@@H](C)C(=O)O (stereo partly shown)	CLSI broth microdilution	PAO1			> 100 µM
CC1=NN(CNc2ccc(C(=O)O)c(O)c2)C(=O)/C1=N/Nn1c(-c2ccccc2)nc2ccccc2c1=O	microbial growth, broth dilution		24 h		24.4 µM
CCn1cc[n+](CC)[c]1[Au-]([Cl])([Cl])[Cl]	broth dilution	PA7 DSM 24068	20 h, 37 °C		74.9 µM
CC(=O)N[C@H](CCCCN)C(=O)N[C@H](CC(C)C)C(=O)N[C@H](CCCCN)C(=O)N[C@H](CO)C(=O)N[C@H](CC(C)C)C(=O)N[C@H](CC(C)C)C(=O)N[C@H](CCCCN)C(=O)N[C@@H](C(=O)N[C@H](CC(C)C)C(=O)N[C@H](CO)C(=O)N[C@H](CCCCN)C(=O)N[C@H](C)C(=O)N[C@H](CCCCN)C(=O)N[C@H](CCCCN)C(=O)N[C@H](CCCCN)C(=O)N[C@H](CC(C)C)C(=O)N[C@H](CC(C)C)C(=O)N[C@H](CCCCN)C(=O)N[C@@H](C(=O)N[C@H](C)C(=O)N[C@H](CC(C)C)C(=O)N[C@H](CCCCN)C(=O)N[C@H](C)C(=O)N[C@H](CC(C)C)C(=O)N[C@H](CO)C(=O)N[C@H](CCCCN)C(N)=O)[C@H](C)O)[C@H](C)O	broth microdilution	M2	24 h, 37 °C		0.7 µM
CC(C)C[C@@H]1NC(=O)[C@@H](CC(C)C)NC(=O)[C@H](CCN)NC(=O)[C@@H](NC(=O)[C@H](CCN)NC(=O)[C@@H](N)[C@@H](C)O)CCNC(=O)[C@H]([C@@H](C)O)NC(=O)[C@H](CCN)NC(=O)[C@H](CCN)NC1=O	broth microdilution	ATCC 27853, CAMHB with polysorbate-80	16 h		> 64 µg/mL
COc1ccc(-c2ccn(CC[C@](C)(C(=O)NO)S(C)(=O)=O)c(=O)c2)c(F)c1		PA-1950			0.25 µg/mL
N=C(N)NCCC[C@H](NC(=O)[C@H](Cc1c[nH]c2ccccc12)NC(=O)[C@H](CCC(N)=O)NC(=O)[C@H](Cc1c[nH]c2ccccc12)NC(=O)[C@H](CCCNC(=N)N)NC(=O)[C@@H](N)CCCNC(=N)N)C(=O)NCCCC[C@H](NC(=O)[C@H](CCCNC(=N)N)NC(=O)[C@H](Cc1c[nH]c2ccccc12)NC(=O)[C@H](CCC(N)=O)NC(=O)[C@H](Cc1c[nH]c2ccccc12)NC(=O)[C@H](CCCNC(=N)N)NC(=O)[C@@H](N)CCCNC(=N)N)C(=O)NCCCCCC(N)=O	broth microdilution	ATCC 27853	24 h, 37 °C		23 µM
O=C(NCCNCCO)c1cn(Cc2cccc(Br)c2)c2cc(Cl)c(OCc3ccc(C(F)(F)F)cc3)cc2c1=O		ATCC 27853		≥80% growth inhibition	< 0.25 µg/mL

Excerpt of the above:
SMILES	assay	test system	conditions	how to read	MIC
COc1ccc2ccc3c(c2c1)C=[N+]1C2CCCCC2[N+]2=Cc4c(F)cccc4[O][Au-]21[O]3.F[P-](F)(F)(F)(F)F (stereo not shown)	bacterial growth, broth microdilution	carbapenem-resistant	24 h		> 20 µM
